Measurements gathered from unrelated publications.
Lines come from different studies, so protocols differ.

Compound	test	system	setting	how to read	Cmax
COc1cc(N2CCC(N3CCN(C)CC3)CC2)ccc1Nc1ncnc(Nc2ccccc2S(=O)(=O)C(C)C)n1	–	human, plasma	oral, 125 mg, day 1	–	317 ng/mL
CO[C@H]1C[C@@H]2CC[C@@H](C)[C@@](O)(O2)C(=O)C(=O)N2CCCC[C@H]2C(=O)O[C@H]([C@H](C)C[C@@H]2CC[C@@H](OC(=O)NCCOCCOCCOCCOCCOCCOCCOCCOCCC(=O)N3CCc4cc(Cn5nc(-c6ccc7oc(N)nc7c6)c6c(N)ncnc65)ccc4C3)[C@H](OC)C2)C[C@@H](O)[C@H](C)/C=C(\C)[C@@H](O)[C@@H](OC)C(=O)[C@H](C)C[C@H](C)/C=C/C=C/C=C/1C	–	human, plasma	intravenous, 6 mg, cycle 1 day 15, arithmetic mean	–	273 ng/mL
C[C@@H]1CCO[C@H]2Cn3cc(C(=O)NCc4ccc(F)cc4F)c(=O)c(O)c3C(=O)N12	–	human paediatric patients, weight sample B to under sample C kg, plasma	oral, 50 mg film-coated tablet, steady state, geometric mean, population PK post-hoc, N 6	–	5170 ng/mL
CCOc1c([C@H](C)n2nc(C)c3c(N)ncnc32)cc(Cl)c(F)c1[C@@H]1CNC(=O)C1	–	human, B-cell malignancies, plasma	oral, 30 mg, day 15, geometric mean	–	2300 nM
COc1ncc(-c2nc3c(n2C(C)C)[C@H](c2ccc(Cl)cc2)N(c2cc(Cl)cn(C)c2=O)C3=O)c(OC)n1	LC-MS/MS	human, plasma	oral, 400 mg, cycle 1 day 1, high-dose arm	–	3750 ng/mL
C=CC(=O)N(C)CCOc1c(N)ncnc1-c1cc(F)cc(NC(=O)c2ccc(C3CC3)cc2F)c1C	–	human, whole blood	oral, 50 mg once daily, day 1	–	76.5 ng/mL
CCn1cc(C(=O)N2CCOCC2)c(=O)c2cc(NC3Cc4ccccc4C3)cnc21	–	human, fed	oral tablet, 300 mg single dose, arithmetic mean	–	1530 ng/mL
Cl.[2H]C([2H])([2H])CC(=O)c1cnc(NC(=O)C2CC2)cc1Nc1cccc(-c2ncn(C([2H])([2H])[2H])n2)c1OC	geometric mean	human	oral, 20 mg twice daily, day 1, fasted, tablet, multiple dose	–	132 ng/mL
C=CCn1c(=O)c2cnc(Nc3ccc(N4CCN(C)CC4)cc3)nc2n1-c1cccc(C(C)(C)O)n1	–	human	oral, 200 mg once daily, cycle 1 day 17, with: durvalumab 1500 mg IV	geometric mean	676 nM
CNC(=O)c1ccc(-c2cnc3ncc(Cc4ccc5ncccc5c4)n3n2)cc1F	–	human mild hepatic impairment	oral, 200 mg single dose, covariate-adjusted geometric mean	–	1270 ng/mL
CCN1CCN(Cc2ccc(Nc3ncc(F)c(-c4cc(F)c5nc6n(c5c4)[C@H](C)CCC6)n3)nc2)CC1	–	human, Phase Ib patients, plasma	300 mg, multiple doses, mean, with: fulvestrant	–	362 ng/mL

Excerpt of the above:
Compound	test	system	setting	how to read	Cmax
CNC(=O)c1ccc(-c2cnc3ncc(Cc4ccc5ncccc5c4)n3n2)cc1F	–	human mild hepatic impairment	oral, 200 mg single dose, covariate-adjusted geometric mean	–	1270 ng/mL
CCn1cc(C(=O)N2CCOCC2)c(=O)c2cc(NC3Cc4ccccc4C3)cnc21	–	human, fed	oral tablet, 300 mg single dose, arithmetic mean	–	1530 ng/mL
